Results gathered from unrelated publications.
Every numbered part comes from another study and shows a few of its results, in no order. Values joined by “and” are separate records of one study, mostly repeats; a detail may differ.
Sequence of UniProt Q99640 (whole entry, looked up): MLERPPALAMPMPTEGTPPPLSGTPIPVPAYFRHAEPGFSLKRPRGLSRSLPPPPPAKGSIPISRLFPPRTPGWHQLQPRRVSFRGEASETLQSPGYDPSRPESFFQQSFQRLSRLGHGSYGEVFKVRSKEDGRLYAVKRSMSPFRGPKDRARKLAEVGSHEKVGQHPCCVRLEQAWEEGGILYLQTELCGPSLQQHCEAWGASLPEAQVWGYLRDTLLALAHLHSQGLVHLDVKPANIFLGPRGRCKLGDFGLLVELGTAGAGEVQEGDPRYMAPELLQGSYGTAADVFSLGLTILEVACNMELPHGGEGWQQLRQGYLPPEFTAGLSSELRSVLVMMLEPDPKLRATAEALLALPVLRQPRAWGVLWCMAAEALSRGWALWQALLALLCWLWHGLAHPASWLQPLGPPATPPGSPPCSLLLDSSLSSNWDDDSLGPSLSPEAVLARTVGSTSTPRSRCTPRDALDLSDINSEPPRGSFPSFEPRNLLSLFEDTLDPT

Set 1 — observed: thermal unfolding; method: differential scanning fluorimetry; tested at: 5.5 µM; direction: higher = more unfolded
Structure (SMILES): C[C@@H]1CN(c2ccc(-c3cc(C(=O)NCCOCCOCCOCCOCCNC(=O)Cn4cc(-c5[nH]cc(C(=O)N[C@@H](CC(N)=O)c6ccc(F)c(Cl)c6)c5-c5ccc(Cl)cc5F)cn4)ccc3F)cc2NC(=O)c2c[nH]c(=O)cc2C(F)(F)F)C[C@H](C)N1C
WDR5: WD repeat-containing protein 5 (WDR5, Homo sapiens, UniProt P61964)
DCAF1: DDB1- and CUL4-associated factor 1 (DCAF1, Homo sapiens, UniProt Q9Y4B6)
Sequence of UniProt Q9Y4B6 (whole entry, looked up): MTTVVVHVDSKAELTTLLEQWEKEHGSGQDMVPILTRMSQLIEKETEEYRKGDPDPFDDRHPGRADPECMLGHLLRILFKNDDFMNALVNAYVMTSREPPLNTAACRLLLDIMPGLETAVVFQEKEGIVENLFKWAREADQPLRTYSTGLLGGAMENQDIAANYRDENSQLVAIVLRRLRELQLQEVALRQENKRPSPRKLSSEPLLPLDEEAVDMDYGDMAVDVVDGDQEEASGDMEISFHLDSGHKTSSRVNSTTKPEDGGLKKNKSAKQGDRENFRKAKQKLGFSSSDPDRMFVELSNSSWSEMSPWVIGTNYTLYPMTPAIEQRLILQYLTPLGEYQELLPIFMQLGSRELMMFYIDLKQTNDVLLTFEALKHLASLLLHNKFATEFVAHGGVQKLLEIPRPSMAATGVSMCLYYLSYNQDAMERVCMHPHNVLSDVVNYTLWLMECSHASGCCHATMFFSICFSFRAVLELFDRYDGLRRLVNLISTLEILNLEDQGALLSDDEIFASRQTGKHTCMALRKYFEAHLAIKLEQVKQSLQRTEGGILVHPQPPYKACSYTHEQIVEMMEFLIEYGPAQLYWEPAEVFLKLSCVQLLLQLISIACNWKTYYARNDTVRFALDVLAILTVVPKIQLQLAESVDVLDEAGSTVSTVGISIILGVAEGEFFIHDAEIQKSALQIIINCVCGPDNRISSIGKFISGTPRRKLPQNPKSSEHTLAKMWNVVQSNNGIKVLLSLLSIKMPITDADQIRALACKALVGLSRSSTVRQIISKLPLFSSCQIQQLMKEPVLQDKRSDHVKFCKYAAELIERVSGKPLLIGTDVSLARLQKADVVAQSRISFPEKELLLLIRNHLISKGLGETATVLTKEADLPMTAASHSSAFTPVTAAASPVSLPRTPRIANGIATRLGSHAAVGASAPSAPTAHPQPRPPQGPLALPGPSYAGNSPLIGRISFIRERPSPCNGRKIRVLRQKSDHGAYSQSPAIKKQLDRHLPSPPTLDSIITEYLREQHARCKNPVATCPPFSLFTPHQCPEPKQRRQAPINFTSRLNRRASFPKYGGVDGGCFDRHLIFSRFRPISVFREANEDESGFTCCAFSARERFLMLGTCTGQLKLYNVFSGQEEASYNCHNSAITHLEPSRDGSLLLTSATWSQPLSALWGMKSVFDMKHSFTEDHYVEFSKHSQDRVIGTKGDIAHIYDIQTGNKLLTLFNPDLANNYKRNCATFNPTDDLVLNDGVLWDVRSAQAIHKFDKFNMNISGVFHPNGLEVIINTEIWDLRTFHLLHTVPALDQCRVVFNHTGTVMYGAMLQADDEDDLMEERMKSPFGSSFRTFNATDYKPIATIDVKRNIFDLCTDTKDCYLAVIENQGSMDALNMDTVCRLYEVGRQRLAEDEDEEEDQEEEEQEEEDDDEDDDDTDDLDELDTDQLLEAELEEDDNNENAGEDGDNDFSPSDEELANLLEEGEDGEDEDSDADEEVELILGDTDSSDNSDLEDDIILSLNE
| target | conditions | SYPRO Orange fluorescence [a.u.] |
| --- | --- | --- |
| WDR5 | 66.01 °C | 7300 |
| WDR5 | 29.4 °C | 14900 |
| DCAF1 | 28.8 °C | 8030 |
| DCAF1 | 26 °C | 7580 |
| WDR5 | 26.4 °C | 14700 |
| DCAF1 | 56.81 °C | 24300 |
| WDR5 | 61.21 °C | 9720 |

Set 2 — cell line: U-87 MG; tested at: concentration not given; baseline: DMSO
SMILES: CCN1/C(=C/C=C2\CCCC(/C=C/C3=[N+](CC)c4ccccc4C3(C)C)=C2NCCCCCCCCN2CCC(Nc3nc4ccccc4n3Cc3ccc(F)cc3)CC2)C(C)(C)c2ccccc21
| test | log2 fold change |
| --- | --- |
| measured: HYLS1 mRNA | -1.95 |
| measured: KLHL29 mRNA | 1.37 |
| measured: MDGA1 mRNA | -1.13 |
| measured: APOL3 mRNA | -1.55 |
| measured: SARDH mRNA | -1.48 |
| measured: RNF43 mRNA | -1.54 |
| measured: HECW1 mRNA | 0.98 |
| measured: MYL6 mRNA | -1.12 |
| measured: IL7R mRNA | -2.66 |
| measured: KLRC2 mRNA | -1.37 |
| measured: UBE2T mRNA | -1.41 |

Further values, each from its own experiment
| SMILES | target or system | test | system | conditions | measurement | result |
| --- | --- | --- | --- | --- | --- | --- |
| Cc1ncc(-c2cc3c(C(N)=O)c(-c4c(C)ccc(O)c4C)cnc3[nH]2)cn1 | Membrane-associated tyrosine- and threonine-specific cdc2-inhibitory kinase (PKMYT1, Homo sapiens, UniProt Q99640) | binding, HTRF |  | 3333.33 nM | inhibition | 97.1% and 94.3% |
| C#Cc1cccc2cc(O)cc(-c3ncc4c(N5CC6CCC(C5)N6)nc(OCC56CCCN5CCC6)nc4c3F)c12 | GTPase HRas (HRAS, Homo sapiens, UniProt P01112) | binding, competitor, NanoBRET | HEK293 | 370 nM | normalized BRET | 89.3% and 100% and 101% and 73.3% |
| Cc1ccc(O)c(C)c1-c1cnc2[nH]c(-c3cnc(N4CC5(CC(CN6CCN(c7ccc(NC8CCC(=O)NC8=O)cc7F)CC6)C5)C4)nc3)cc2c1C#N (stereo not drawn) |  |  | CD-1 mouse | intravenous, dose not given, 4 h | plasma concentration | not detected |
| CN1CCC[C@H]1COc1nc2c(c(N3CCN(C(=O)C4CC4)[C@@H](CC#N)C3)n1)CCN(c1cccc3cccc(Cl)c13)C2 | HEK293 RAS-independent | cell growth, CellTiter-Glo |  |  | IC50 | 3.8 µM |
| Cc1ccc(O)c(C)c1-c1cnc2[nH]c(-c3cnc(N4CCC(CN5CCN(c6ccc(NC7CCC(=O)NC7=O)cc6F)CC5)CC4)nc3)cc2c1C#N (stereo not drawn) |  |  | CD-1 mouse | intravenous, dose not given, 24 h | plasma concentration | not detected |
| Cc1ccc(O)c(C)c1-c1cnc2[nH]c(-c3cnc(N4CCC5(CC4)CC(N4CCN(c6ccc(NC7CCC(=O)NC7=O)cc6F)CC4)CO5)nc3)cc2c1C#N (stereo not drawn) |  |  | female CD-1 mouse, plasma | oral, 10 mg/kg | AUC(0-t) | 3090 ng·h/mL |

For quick reference, copied from above (further values, each from its own experiment):
| SMILES | target or system | test | system | conditions | measurement | result |
| --- | --- | --- | --- | --- | --- | --- |
| Cc1ccc(O)c(C)c1-c1cnc2[nH]c(-c3cnc(N4CCC(CN5CCN(c6ccc(NC7CCC(=O)NC7=O)cc6F)CC5)CC4)nc3)cc2c1C#N (stereo not drawn) |  |  | CD-1 mouse | intravenous, dose not given, 24 h | plasma concentration | not detected |
| Cc1ccc(O)c(C)c1-c1cnc2[nH]c(-c3cnc(N4CCC5(CC4)CC(N4CCN(c6ccc(NC7CCC(=O)NC7=O)cc6F)CC4)CO5)nc3)cc2c1C#N (stereo not drawn) |  |  | female CD-1 mouse, plasma | oral, 10 mg/kg | AUC(0-t) | 3090 ng·h/mL |
